# Measurements of several laboratories.
# Each line is one published result; not all experiments were run side by side. Values joined by “and” are separate records of one study, mostly repeats; a detail may differ. ± marks the error that the study gave.
Structure (SMILES),assay,test system,conditions,scale,measurement,value
CCCCCCCCCCCCCCCC(=O)OCC(CSC[C@H](N)C(=O)N[C@@H](CO)C(=O)N[C@@H](CCCCN)C(=O)N[C@@H](CCCCN)C(=O)N[C@@H](CCCCN)C(=O)N[C@@H](CCCCN)C(=O)NCCCCCC(=O)N[C@@H](CCCCN)C(=O)N[C@@H](CC(C)C)C(=O)N[C@H](C(=O)N[C@@H](Cc1ccccc1)C(=O)N[C@@H](Cc1ccccc1)C(=O)N[C@@H](Cc1ccc2ccccc2c1)C(=O)O)C(C)C)OC(=O)CCCCCCCCCCCCCCC (stereo partly shown),"OC antibody staining, refers to: amyloid-beta oligomer","APP/PS1 transgenic mouse, cortex","intracortical injection, dose not given",,OC+ thioflavin S- area,1.06% and 3.92% and 2.81%
COC1OC(C)C(O)C(OC2OC(C)C(O)C(OC3OC(C)C(O)C(OC4OC(C)C(O)C(OS(=O)(=O)O)C4OS(=O)(=O)O)C3OS(=O)(=O)O)C2OS(=O)(=O)O)C1OS(=O)(=O)O (stereo not shown),,human plasma,128 µg/mL,reference: control,APTT prolongation,1.1 fold
COC1CN([C@H]2CC[C@H]([C@@]3(C)Oc4c(Cl)cc(C(=O)NCc5c(SC)cc(C)[nH]c5=O)c(C)c4O3)CC2)C1,"RNA-seq, refers to: NOS1AP mouse homolog","mouse, HT-1376 xenograft, whole blood",dose not given,reference: vehicle,log2 fold change,0.182
COc1ccc(C(=O)CCc2cc(C(CCc3ccc(O)cc3OC)c3ccc(O)cc3)c(O)cc2OC)cc1 (racemic),,human blood,"1 µM, with: A23187",,arachidonic acid level,100000 ± 9130 pg/mL
O=Cc1cc(C(F)(F)F)cc(C(F)(F)F)c1,HPLC-MS,,"pH 10.2, with: 50 mM N-α-acetyl-lysine",,pseudo-first-order rate constant,0 h⁻¹
COc1ccc(S(=O)(=O)N2CCc3ccccc3C2)cc1N1CCN(C(=O)c2ccc(F)cc2C(F)(F)F)CC1,"stereology, optical fractionator, refers to: tyrosine hydroxylase","rat, 6-OHDA lesion model, substantia nigra pars compacta, intact side",0.3 µg/24 h,,TH-immunoreactive cell number,395 ± 40.5
COc1cc2c(NC3CCN(C(C)C)CC3)cc(N3CCOCC3)nc2cc1OCCCN1CCCC1,"TMT proteomics, refers to: PGAM1","5xFAD mice, hippocampus",dose not given,reference: wild-type mice,log2 fold change,-0.0339
COc1ccc(NC(=O)c2ccc3[nH]c(-c4ccc(N(C)C)cc4)nc3c2)cn1,,"Lewis lung carcinoma, mice, syngeneic graft, subcutaneous","intraperitoneal, 25 mg/kg daily, day 10",,tumour volume,688 mm3 and 545 mm3 and 1410 mm3 and 1710 mm3
NC[C@@H](C(=O)Nc1ccc(-c2cn[nH]c2)cc1)c1ccccc1,tonometry,"NZW rabbit, magnetic bead-induced ocular hypertension","ocular, 0.03%, 24 h",,IOP,35.2 mmHg
COC1OC(C)C(OS(=O)(=O)O)C(OC2OC(C)C(OS(=O)(=O)O)C(OC3OC(C)C(OS(=O)(=O)O)C(OC4OC(C)C(OS(=O)(=O)O)C(OC5OC(C)C(OS(=O)(=O)O)C(OS(=O)(=O)O)C5O)C4O)C3O)C2O)C1O (stereo not shown),,human plasma,128 µg/mL,reference: control,APTT prolongation,1.3 fold
CC(=O)[O-].O.O.[O-]c1ccc(Br)cc1C=NCCN1CCOCC1.[Zn+2],superoxide scavenging,,160 µM,,inhibition,31.8%
CC(C)OC(=O)[C@H](CO)NCc1cc(Cl)c(OCc2cccc(-c3ccccc3)c2Br)cc1OCc1cccnc1,,"hPD-L1 MC-38 tumour, humanised hPD-1 C57BL/6 mouse","oral, 5 mg/kg × 21",,tumour weight,1.55 ± 0.58 g
S=C(S)OC1CC2CC1C1CCCC21 (stereo not shown),"LC-MS/MS, refers to: extracellular Leu-enkephalin",mouse striatal brain slices,"500 µM, 20 min, with: 50 mM KCl",,Leu-enkephalin concentration,602 pM and 580 pM and 378 pM and 759 pM and 1000 pM and 707 pM and 1450 pM and 487 pM

# Excerpt of the above:
Structure (SMILES),assay,test system,conditions,scale,measurement,value
COc1cc2c(NC3CCN(C(C)C)CC3)cc(N3CCOCC3)nc2cc1OCCCN1CCCC1,"TMT proteomics, refers to: PGAM1","5xFAD mice, hippocampus",dose not given,reference: wild-type mice,log2 fold change,-0.0339
